Results pooled from the literature.
Every numbered part comes from another study and shows a few of its results, in no order.

Block 1
Target: Interferon regulatory factor 3, full length, phosphomimetic (IRF3, Homo sapiens, UniProt Q14653, residues 1-427, S386D/S396D/S398D/S402D/T404D/S405D)
UniProt Q14653, sequence (whole entry, unmodified, looked up): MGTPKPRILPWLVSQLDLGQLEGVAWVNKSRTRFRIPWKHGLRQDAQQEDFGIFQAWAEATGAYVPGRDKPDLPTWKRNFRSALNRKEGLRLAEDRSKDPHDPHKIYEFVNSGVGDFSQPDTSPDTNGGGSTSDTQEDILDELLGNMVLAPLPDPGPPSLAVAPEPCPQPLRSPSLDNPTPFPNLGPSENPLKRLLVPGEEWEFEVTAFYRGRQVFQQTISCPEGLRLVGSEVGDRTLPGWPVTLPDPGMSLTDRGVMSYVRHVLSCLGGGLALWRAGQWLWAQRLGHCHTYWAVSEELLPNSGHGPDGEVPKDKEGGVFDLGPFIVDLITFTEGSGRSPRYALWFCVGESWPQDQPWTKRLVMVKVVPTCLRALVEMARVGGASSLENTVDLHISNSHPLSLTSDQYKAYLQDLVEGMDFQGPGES
Method: protein-binding microarray
Molecule type: double-stranded DNA, one strand shown
Matrix: in vitro
Concentration: 2540 nM top
Setting: 60-bp whole probe
Together with: salmon DNA 0.4 mg/ml
Reference: random background probes
Reading: higher = stronger binding
Constant ends, left off below: GCCTAGCAC … GTCTTGATTCGCTTGACGCTGCTG
Sequence | fitted relative affinity
TCATATCTGTGTTATTAAACTGTGCTA | 0.857 z-score
TCATTTTACAATTTGCTACTGTGCTAG | 2.27 z-score
CACATTCTCTGCTTGGGTCTGTGCTAG | 2.27 z-score
GACGATTTCAGTTTCGCGACGTGCTAG | 3.94 z-score
TTAGATATCGACTTTCGGTTAGTGCTA | 1.48 z-score

Block 2
Target: Histone acetyltransferase KAT6A, winged helix 2, GST fusion (KAT6A, Homo sapiens, UniProt Q92794, residues 85-181)
Method: protein binding microarray
Molecule type: double-stranded DNA, one strand shown
Matrix: in vitro
Concentration: not given
Setting: 8-mer, flanks averaged, mean of 2 arrays, mostly near background
Reference: not given
Reading: higher = stronger binding
Residues (chain): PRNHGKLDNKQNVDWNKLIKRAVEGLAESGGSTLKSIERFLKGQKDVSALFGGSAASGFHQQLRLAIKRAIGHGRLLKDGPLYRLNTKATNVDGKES
Sequence | E-score
CCACCGCC | 0.151
AGGACCCC | -0.15
CAGTACTA | -0.0456
ACTCTCCG | 0.159
GCCCCAAA | 0.0838
ACACTTGA | 0.00013
ATTAATTG | 0.0751

Block 3
Target: Sal-like protein 4, full length isoform A (SALL4, Homo sapiens, UniProt Q9UJQ4, residues 1-1053)
UniProt Q9UJQ4, sequence (whole entry, looked up): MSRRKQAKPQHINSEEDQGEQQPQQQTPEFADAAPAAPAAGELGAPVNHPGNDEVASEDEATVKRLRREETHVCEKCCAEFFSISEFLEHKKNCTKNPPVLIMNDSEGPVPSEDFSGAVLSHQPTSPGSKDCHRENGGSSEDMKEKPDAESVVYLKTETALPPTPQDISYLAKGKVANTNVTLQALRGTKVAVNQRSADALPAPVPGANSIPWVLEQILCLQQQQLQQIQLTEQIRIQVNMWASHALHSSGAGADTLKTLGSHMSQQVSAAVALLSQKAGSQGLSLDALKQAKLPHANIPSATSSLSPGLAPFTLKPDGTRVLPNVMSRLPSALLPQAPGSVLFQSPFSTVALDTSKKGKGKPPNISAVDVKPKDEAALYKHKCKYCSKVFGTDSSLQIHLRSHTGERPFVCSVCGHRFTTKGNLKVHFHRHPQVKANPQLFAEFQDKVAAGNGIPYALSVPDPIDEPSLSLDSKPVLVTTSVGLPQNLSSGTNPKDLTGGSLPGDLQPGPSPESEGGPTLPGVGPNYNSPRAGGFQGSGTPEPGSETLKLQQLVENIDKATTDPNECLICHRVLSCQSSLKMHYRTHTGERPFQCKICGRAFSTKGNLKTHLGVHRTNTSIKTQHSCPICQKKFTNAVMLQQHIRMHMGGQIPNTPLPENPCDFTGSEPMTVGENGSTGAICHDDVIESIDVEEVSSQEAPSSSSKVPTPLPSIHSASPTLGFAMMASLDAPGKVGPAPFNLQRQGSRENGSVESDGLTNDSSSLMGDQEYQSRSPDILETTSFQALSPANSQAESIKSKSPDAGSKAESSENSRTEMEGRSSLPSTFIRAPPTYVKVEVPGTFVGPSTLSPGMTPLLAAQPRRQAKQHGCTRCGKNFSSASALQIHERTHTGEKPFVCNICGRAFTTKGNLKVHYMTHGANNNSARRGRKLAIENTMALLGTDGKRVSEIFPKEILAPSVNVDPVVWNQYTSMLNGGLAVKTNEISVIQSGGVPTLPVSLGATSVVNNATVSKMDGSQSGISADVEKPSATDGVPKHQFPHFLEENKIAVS
Method: universal PBM
Molecule type: double-stranded DNA, one strand shown
Matrix: in vitro
Concentration: 600 nM
Setting: 8-mer, flanks averaged, mean of replicates
Reading: higher = stronger binding
Sequence | E-score
AGGGGGCC | -0.381
ACGAGACC | -0.19
TTAAAAAA | 0.368
CTTGTTTC | 0.0893
ATTGAGTC | 0.00383
GCGAACAA | 0.0699

Other studies, line by line
Substance | target | test | test system | setting | how to read | measurement | value
PhoQ, residues 284 288 289 292 302 303 SVTLVV | PhoP, residues 12 14 15 18 19 GQAIL (Escherichia coli, UniProt P23836) | Sort-seq, refers to: YFP reporter | E. coli | PhoQ-PhoP variant library, together with: 10 µM Mg2+ | reference: high Mg2+ state, higher = stronger signaling | fold induction | 11.4

A few entries again (block 1):
Sequence | fitted relative affinity
TCATTTTACAATTTGCTACTGTGCTAG | 2.27 z-score
TCATATCTGTGTTATTAAACTGTGCTA | 0.857 z-score
TTAGATATCGACTTTCGGTTAGTGCTA | 1.48 z-score
